Measurements from different studies.
Numbered parts are unrelated; each lists some results of a single study. Several values in a cell are separate wells, animals, samples, runs or records.
UniProt P00519, sequence (whole entry, unmodified, looked up): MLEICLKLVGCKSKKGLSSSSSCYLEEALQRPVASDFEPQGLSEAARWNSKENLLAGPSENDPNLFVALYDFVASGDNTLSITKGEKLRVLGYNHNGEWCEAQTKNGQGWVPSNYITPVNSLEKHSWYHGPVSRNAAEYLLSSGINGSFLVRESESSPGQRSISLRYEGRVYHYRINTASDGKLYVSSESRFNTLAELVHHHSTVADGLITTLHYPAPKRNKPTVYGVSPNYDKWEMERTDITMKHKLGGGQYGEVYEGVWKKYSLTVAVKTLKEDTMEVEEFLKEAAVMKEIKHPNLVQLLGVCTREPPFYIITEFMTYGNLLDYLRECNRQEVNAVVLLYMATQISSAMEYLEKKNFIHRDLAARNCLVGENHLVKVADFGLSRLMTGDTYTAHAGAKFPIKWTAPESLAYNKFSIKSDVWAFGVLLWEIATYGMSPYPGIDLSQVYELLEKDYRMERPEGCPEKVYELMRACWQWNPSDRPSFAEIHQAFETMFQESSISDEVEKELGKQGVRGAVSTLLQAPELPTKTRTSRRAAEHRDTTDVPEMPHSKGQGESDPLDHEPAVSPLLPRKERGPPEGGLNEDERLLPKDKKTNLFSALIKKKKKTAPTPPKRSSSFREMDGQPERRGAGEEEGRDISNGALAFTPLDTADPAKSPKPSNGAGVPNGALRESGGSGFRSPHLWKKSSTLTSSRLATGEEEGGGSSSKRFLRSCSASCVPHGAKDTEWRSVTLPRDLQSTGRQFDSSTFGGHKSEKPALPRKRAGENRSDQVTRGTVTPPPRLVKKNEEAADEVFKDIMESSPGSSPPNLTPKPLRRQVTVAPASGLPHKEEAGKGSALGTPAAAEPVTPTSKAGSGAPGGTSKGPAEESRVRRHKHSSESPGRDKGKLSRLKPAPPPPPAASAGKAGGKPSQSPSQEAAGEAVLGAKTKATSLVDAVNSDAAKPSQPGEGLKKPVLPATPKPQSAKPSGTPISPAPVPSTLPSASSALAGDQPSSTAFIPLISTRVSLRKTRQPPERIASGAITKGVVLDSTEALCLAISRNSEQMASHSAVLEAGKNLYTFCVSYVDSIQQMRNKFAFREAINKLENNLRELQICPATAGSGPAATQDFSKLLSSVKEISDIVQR
UniProt Q99759, sequence (whole entry, looked up): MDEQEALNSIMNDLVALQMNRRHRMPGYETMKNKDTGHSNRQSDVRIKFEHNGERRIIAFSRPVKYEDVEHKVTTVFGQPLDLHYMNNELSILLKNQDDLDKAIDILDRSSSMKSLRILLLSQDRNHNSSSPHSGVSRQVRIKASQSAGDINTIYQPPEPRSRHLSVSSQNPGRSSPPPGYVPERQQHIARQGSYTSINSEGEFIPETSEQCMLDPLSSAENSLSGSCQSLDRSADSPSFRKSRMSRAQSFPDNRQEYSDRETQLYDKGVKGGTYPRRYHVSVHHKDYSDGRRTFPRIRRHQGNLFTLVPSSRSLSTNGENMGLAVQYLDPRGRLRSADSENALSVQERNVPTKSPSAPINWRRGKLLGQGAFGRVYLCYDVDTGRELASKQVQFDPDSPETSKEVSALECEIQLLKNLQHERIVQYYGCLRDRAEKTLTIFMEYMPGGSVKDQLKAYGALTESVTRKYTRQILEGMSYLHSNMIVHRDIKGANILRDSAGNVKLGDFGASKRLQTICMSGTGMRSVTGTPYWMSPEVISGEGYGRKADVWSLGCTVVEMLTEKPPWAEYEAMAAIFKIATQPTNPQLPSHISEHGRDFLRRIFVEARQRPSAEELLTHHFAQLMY

Block 1
SMILES: CCCCN(CCCC)C(=O)CN1C[C@@H](c2cc(OC)c3c(c2)OCO3)[C@H](C(=O)O)[C@H]1CC(C)(C)CCC
Concentration: 1 µM
target | test | setting | scale | remaining binding
Myosin-IIIb (MYO3B, Homo sapiens, UniProt Q8WXR4) | cell-free assay, competition with immobilised ligand | – | – | 91%
PRKCQ (Homo sapiens, UniProt Q04759) | cell-free assay, competition with immobilised ligand | – | – | 78.6%
Aurora kinase B (AURKB, Homo sapiens, UniProt Q96GD4) | cell-free assay, competition with immobilised ligand | – | – | 100%
HIPK2 (Homo sapiens, UniProt Q9H2X6) | cell-free assay, competition with immobilised ligand | – | – | 97.1%
DCLK2 (Homo sapiens, UniProt Q8N568) | cell-free assay, competition with immobilised ligand | – | – | 87.4%
MAPK13 (Homo sapiens, UniProt O15264) | cell-free assay, competition with immobilised ligand | – | – | 100%
ABL1 (Homo sapiens, UniProt P00519, E255K) | KINOMEscan | E255K mutant, phosphorylated | relative to: control | 93.5%
EGFR (Homo sapiens, UniProt P00533, del747-750/T751S) | cell-free assay, competition with immobilised ligand | – | – | 100%
BMPR1A (Homo sapiens, UniProt P36894) | cell-free assay, competition with immobilised ligand | – | – | 100%
MAP3K3 (Homo sapiens, UniProt Q99759) | cell-free assay, competition with immobilised ligand | – | – | 100%
Tyrosine-protein kinase ABL1, non-phosphorylated (ABL1, Homo sapiens, UniProt P00519) | cell-free assay, competition with immobilised ligand | – | – | 94.8%
IRAK3 (Homo sapiens, UniProt Q9Y616) | cell-free assay, competition with immobilised ligand | – | – | 85%
CSNK1A1L (Homo sapiens, UniProt Q8N752) | cell-free assay, competition with immobilised ligand | – | – | 91.1%

Block 2
Target: Serine/threonine-protein kinase haspin (HASPIN, Homo sapiens, UniProt Q8TF76)
UniProt Q8TF76, sequence (whole entry, looked up): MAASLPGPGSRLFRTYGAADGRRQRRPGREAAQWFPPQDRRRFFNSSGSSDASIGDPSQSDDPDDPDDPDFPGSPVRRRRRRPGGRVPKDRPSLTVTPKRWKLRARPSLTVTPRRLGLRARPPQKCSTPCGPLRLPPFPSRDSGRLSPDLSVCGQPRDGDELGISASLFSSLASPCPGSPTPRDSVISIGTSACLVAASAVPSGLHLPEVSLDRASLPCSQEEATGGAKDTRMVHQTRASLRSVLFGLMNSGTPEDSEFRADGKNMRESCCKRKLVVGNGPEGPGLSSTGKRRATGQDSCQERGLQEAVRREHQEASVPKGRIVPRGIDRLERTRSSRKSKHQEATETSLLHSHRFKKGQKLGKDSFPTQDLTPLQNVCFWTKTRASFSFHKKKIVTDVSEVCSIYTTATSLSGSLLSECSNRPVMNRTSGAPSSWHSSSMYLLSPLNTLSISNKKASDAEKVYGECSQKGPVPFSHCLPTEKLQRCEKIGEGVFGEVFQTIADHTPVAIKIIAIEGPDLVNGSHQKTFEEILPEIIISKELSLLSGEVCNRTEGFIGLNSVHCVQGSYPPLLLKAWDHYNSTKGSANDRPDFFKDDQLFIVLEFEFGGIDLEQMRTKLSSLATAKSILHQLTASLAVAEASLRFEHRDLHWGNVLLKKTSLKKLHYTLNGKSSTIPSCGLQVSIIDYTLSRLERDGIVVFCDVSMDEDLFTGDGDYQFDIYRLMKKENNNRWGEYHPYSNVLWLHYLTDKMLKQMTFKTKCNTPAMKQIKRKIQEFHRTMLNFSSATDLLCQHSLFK
Observed: enzyme activity
Mode: inhibitor
Concentration: 0.5 µM
Relative to: control
Compound | remaining activity [%]
Cc1cn(-c2cc(NC(=O)c3ccc(C)c(Nc4nccc(-c5cccnc5)n4)c3)cc(C(F)(F)F)c2)cn1 | 66.5
Cc1nc2cc3nc(-c4cccs4)cnc3cc2n1C | 108
COc1cc2c(cc1OC)-c1[nH]nc(Nc3cccc(F)c3)c1C2 | 84.8
CN([C@@H](Cc1ccc(OS(=O)(=O)c2cccc3cnccc23)cc1)C(=O)N1CCN(c2ccccc2)CC1)S(=O)(=O)c1cccc2cnccc12 | 94.7
N#C/C(=C\c1ccc(O)c(O)c1)C(=O)NCc1ccccc1 | 104
Cn1nc2c3c(cccc31)C(=O)c1ccccc1-2 | 53.1
c1ccc(-c2cnc(Nc3ccc(OCCN4CCCC4)cc3)s2)cc1 | 106
COc1cc2ncnc(Nc3ccc(O)c(Br)c3)c2cc1OC | 84.8
c1ccc(-c2[nH]ncc2-c2ccnc3ccccc23)nc1 | 90.8
CCN(CC)CCNC(=O)c1c(C)[nH]c(/C=C2\C(=O)Nc3ccc(F)cc32)c1C | 53.2
CN(C)C[C@H]1CCn2c(c(C3=C(c4cn(C)c5ccccc45)C(=O)NC3=O)c3ccccc32)C1 | 100
O=C(NC(NC(=S)Nc1ccc(F)c([N+](=O)[O-])c1)C(Cl)(Cl)Cl)C(c1ccccc1)c1ccccc1 (stereo not drawn) | 109
Nc1cccc(-c2cc3c(Oc4cccc(O)c4)ncnc3[nH]2)c1 | 93.3
O=C1C(Cl)=C(N2C(=O)CCC2=O)C(=O)c2ccccc21 | 101
CCN(CC)C(=O)c1ccc(Nc2nc(OCC3CCCCC3)c3[nH]cnc3n2)cc1 | 94.1
C[C@@H]1CCN(C(=O)CC#N)C[C@@H]1N(C)c1ncnc2[nH]ccc12 | 77.9
N#Cc1c(NC(=O)c2cccc3ccccc23)sc2c1CCCC2 | 99
O=C(Nc1cccc(Nc2nccc(Nc3cccc(C(F)(F)F)c3)n2)c1)C1CC1 | 101
O=C1c2ccccc2-c2n[nH]c3cccc1c23 | 35.3
Ic1cccc(CSc2nnc(-c3ccncc3)o2)c1 | 95.9
CCOc1nc(NC(=O)Cc2cc(OC)ccc2OC)cc(N)c1C#N | 98.9
Cc1cc2ncc(-c3ccccc3)nc2cc1C | 91.5
COc1cc2ncnc(Nc3cccc(Cl)c3)c2cc1OC | 84.8

Block 3
Target: DNA polymerase theta, ATPase domain (POLQ, Homo sapiens, UniProt O75417)
UniProt O75417, sequence (whole entry, unmodified, looked up): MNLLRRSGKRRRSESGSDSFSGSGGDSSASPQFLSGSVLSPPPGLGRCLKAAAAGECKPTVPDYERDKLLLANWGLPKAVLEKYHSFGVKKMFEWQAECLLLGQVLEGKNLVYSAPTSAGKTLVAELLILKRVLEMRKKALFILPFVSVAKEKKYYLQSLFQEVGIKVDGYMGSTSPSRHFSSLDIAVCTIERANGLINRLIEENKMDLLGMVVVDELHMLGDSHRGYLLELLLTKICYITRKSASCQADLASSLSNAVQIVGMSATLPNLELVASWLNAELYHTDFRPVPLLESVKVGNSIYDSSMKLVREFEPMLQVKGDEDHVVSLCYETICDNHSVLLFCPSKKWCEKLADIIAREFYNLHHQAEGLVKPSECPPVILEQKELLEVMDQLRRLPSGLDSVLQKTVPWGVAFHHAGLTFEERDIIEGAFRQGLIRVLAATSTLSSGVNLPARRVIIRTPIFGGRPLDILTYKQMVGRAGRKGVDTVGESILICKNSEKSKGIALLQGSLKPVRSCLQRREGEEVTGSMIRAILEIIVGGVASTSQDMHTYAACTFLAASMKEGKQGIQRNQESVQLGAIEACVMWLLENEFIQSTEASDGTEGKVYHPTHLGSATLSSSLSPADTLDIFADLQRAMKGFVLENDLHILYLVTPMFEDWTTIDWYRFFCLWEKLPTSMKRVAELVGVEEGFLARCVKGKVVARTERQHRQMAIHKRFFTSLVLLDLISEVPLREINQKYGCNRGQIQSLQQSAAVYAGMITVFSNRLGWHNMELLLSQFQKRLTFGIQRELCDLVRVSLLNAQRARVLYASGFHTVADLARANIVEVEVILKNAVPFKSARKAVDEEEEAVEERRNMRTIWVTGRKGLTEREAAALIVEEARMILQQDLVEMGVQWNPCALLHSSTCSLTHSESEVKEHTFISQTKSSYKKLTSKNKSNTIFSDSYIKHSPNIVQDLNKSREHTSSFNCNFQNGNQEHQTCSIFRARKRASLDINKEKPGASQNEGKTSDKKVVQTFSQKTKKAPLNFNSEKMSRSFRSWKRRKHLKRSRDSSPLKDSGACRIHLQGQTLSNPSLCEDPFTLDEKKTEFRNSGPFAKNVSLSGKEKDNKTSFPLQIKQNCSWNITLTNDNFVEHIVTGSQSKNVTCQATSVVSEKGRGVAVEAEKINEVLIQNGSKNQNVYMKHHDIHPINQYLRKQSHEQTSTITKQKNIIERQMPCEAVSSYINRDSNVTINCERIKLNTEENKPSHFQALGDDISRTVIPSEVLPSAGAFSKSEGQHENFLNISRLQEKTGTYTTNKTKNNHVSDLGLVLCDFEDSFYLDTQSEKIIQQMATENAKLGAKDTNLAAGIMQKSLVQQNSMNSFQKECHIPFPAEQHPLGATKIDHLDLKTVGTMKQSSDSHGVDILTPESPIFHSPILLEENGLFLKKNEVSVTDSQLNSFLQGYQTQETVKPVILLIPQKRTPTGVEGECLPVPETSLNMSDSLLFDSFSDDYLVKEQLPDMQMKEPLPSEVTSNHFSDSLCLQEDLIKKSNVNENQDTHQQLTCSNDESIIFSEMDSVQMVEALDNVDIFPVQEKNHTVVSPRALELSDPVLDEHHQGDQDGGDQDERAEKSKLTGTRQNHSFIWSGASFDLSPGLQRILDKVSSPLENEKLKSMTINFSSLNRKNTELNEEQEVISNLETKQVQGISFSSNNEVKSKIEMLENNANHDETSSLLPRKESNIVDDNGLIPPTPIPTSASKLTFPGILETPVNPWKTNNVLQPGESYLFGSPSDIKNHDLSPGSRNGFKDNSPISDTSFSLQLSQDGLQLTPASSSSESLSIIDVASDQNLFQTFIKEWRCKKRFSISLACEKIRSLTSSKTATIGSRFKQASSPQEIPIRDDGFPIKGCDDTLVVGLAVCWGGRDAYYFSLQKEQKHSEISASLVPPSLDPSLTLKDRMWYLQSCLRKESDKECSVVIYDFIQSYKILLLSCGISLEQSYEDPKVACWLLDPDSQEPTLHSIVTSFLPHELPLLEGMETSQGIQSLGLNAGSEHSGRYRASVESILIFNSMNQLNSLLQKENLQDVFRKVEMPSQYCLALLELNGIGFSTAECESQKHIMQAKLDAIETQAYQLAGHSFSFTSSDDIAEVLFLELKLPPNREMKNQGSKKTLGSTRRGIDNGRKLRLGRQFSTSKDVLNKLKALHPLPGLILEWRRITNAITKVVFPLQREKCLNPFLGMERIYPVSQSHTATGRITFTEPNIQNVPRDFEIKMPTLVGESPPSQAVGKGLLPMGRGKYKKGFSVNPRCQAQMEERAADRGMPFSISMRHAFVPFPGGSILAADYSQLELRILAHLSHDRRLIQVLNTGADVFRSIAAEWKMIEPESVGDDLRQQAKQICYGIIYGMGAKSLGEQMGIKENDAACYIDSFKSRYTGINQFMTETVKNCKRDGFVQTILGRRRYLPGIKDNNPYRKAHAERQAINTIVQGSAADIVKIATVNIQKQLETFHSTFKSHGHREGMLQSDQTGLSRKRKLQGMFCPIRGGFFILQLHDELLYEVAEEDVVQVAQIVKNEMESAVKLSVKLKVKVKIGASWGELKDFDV
Observed: enzyme activity
Mode: inhibitor
Concentration: 77 µM
Relative to: untreated
SMILES | remaining activity
CCCCC1C(=O)N(c2ccccc2)N(c2ccccc2)C1=O | 96.6% and 100%
COc1cc(/C=C(\C#N)C(=O)c2ccc(O)c(O)c2)cc(I)c1O | 84%
CC(C)(C(=O)c1cccnc1)c1cccnc1 | 100%
O=C(O)/C=C/c1ccc(O)c(O)c1 | 98.4% and 98.7%
Cc1nc(-c2ccccc2)c(-c2ccncc2)o1 | 96.7%
CC1(C)[C@@H](OC(=O)CCC(=O)O)CC[C@]2(C)[C@H]3C(=O)C=C4[C@@H]5C[C@@](C)(C(=O)O)CC[C@]5(C)CC[C@@]4(C)[C@]3(C)CC[C@@H]12 | 103%
NCCNc1ncc(C(N)=O)c(Nc2cccc(C(F)(F)F)c2)n1 | 108%
COc1cc2c(cc1OC)-c1cc3ccc(OC)c(OC)c3c[n+]1CC2 | 102% and 87%

Block 4
Structure (SMILES): CC(C)n1cnc(-c2ccc(F)cc2)c1-c1ncc(C(=O)Nc2ccc(N3CCN(C)CC3)cc2)[nH]1
Technique: phase 2a trial
Species: idiopathic pulmonary fibrosis patients
setting | patients with cardiac disorders [%]
30 mg once daily, adverse event grade 2 | 0
60 mg once daily, adverse event grade 3 | 0
60 mg once daily, adverse event grade 5 | 0
30 mg once daily, adverse event grade 5 | 0
dose not given, adverse event grade 4, all dose arms pooled | 0
30 mg once daily, adverse event grade 4 | 0
60 mg once daily, adverse event grade 2 | 0

Excerpt of the above (block 4):
setting | patients with cardiac disorders [%]
60 mg once daily, adverse event grade 3 | 0
60 mg once daily, adverse event grade 5 | 0
30 mg once daily, adverse event grade 5 | 0
dose not given, adverse event grade 4, all dose arms pooled | 0
30 mg once daily, adverse event grade 4 | 0
60 mg once daily, adverse event grade 2 | 0
